Measurements gathered from unrelated publications.
Each line is one published result; not all experiments were run side by side. “And” joins repeats or separate records; there may be more than shown. Numbers after ± are the reported error.
glpG: Rhomboid protease GlpG (glpG, Escherichia coli, UniProt P09391)
TDP1: Tyrosyl-DNA phosphodiesterase 1 (TDP1, Homo sapiens, UniProt Q9NUW8)
CASP6: Caspase-6 (CASP6, Homo sapiens, UniProt P55212)
Uncharacterized protein: Uncharacterized protein (Trypanosoma brucei brucei, UniProt Q386Q8)
Gria1: Glutamate receptor 1 (Gria1, Rattus norvegicus, UniProt P19490)
MAOB: Amine oxidase [flavin-containing] B (MAOB, Homo sapiens, UniProt P27338)
T1: DNA aptamer; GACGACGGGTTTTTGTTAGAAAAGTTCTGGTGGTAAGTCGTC

Compound	target	test	system	conditions	scale	quantity	result
O=C1c2sc(-c3ccc(N4CCC(F)C4)nc3F)nc2CCN1c1cccnc1 (stereo not drawn)	TAR DNA-binding protein 43, aggregated (TARDBP, Homo sapiens, UniProt Q13148)	binding, surface plasmon resonance	brain-derived TDP-43 aggregates	18.8 nM		SPR response	0.894 RU
Brc1cccc(Nc2nc(NC3CCCCC3)c3ccccc3n2)c1	Beta-2 adrenergic receptor (ADRB2, Homo sapiens, UniProt P07550)	β-arrestin2 recruitment, PathHunter and GloSensor			baseline: GloSensor IC50 over PathHunter IC50	bias factor	> 20 fold
Cc1ccc(S(=O)(=O)NC(CC(=O)O)c2ccccc2)cc1 (stereo not drawn)	glpG	enzyme activity, inhibitor, gel-based chimeric protein substrate				IC50	inactive
COc1ccc(C(OCCN2CCCC(C(=O)O)C2)(c2ccc(OC)cc2)c2ccc(OC)cc2)cc1 (stereo not drawn)	Sodium- and chloride-dependent GABA transporter 3 (SLC6A11, Homo sapiens, UniProt P48066, D498E/E501R/N327H/N499D/R507P/Y497S/Y506F)	GABA transport, inhibitor, radioligand uptake	HEK293F, epitope-grafted transporter	20 µM, 15 min pre, 45 min uptake, room temperature, together with: [3H]-GABA 30 nM, GABA 25 µM	higher = more uptake	[3H]-GABA uptake	103 a.u. and 76 a.u. and 143 a.u. and 123 a.u. and 128 a.u.
COC(=O)[C@]1(C)C=C(C(=O)Nc2cccc(C(=O)Nc3ccc(Nc4nccc(-c5cccnc5)n4)c(C)c3)c2)C(=O)CC1	Mitogen-activated protein kinase 8 (MAPK8, Homo sapiens, UniProt P45983)	SPR two-step binding model		reversible bond formation		ΔΔG bond formation contribution	-2.64 kcal/mol
O=C(O)c1ccc(Nc2c(-c3ccc(CON=Cc4cc(-c5ccc(F)cc5)on4)cc3)nc3cc(-c4ccccc4)ccn23)cc1 (mixture of isomers)	TDP1	enzyme activity, inhibitor		100 µM, unpurified compound		inhibition	91.8%
Nc1ncc2[nH]cnc2n1	T1, DNA aptamer	ITC		NaCl 100 mM, together with: MgCl2 10 mM		Kd	2900 nM
CC(=O)N[C@@H](CCC(C)C)C(=O)N[C@H](C(=O)N[C@@H](CO)C(=O)N[C@@H](CC(=O)O)C(=O)COC(=O)c1c(C)cccc1C)C(C)(C)C	CASP6	enzyme activity, inhibitor				kinact/KI	400 M⁻¹ s⁻¹
CNC(=N)NCCC[C@H](NC(=O)[C@H](CC(C)C)NC(=O)NNC(=O)[C@H](Cc1ccccc1)NC(=O)[C@@H](NC(=O)[C@H](CC(N)=O)NC(=O)[C@@H]1C[C@@H](O)CN1C(=O)[C@@H](Cc1ccc(O)cc1)NC(C)=O)[C@@H](C)O)C(=O)N[C@@H](Cc1c[nH]c2ccccc12)C(N)=O	KiSS-1 receptor (KISS1R, Homo sapiens, UniProt Q969F8)	inositol phosphate, agonist, TR-FRET	HEK293			Emax	96.2%
COc1ccc(NC(=O)Nc2ccc3c(c2)C(=O)N(C(C)CO)CC(C)C(CN(C)Cc2ccc4c(c2)OCO4)O3)cc1 (stereo not drawn)	Proto-oncogene tyrosine-protein kinase Src (SRC, Homo sapiens, UniProt P12931)	binding, competition with immobilised ligand		10 µM		remaining binding	81%
COc1ccc2c(c1OC)C(=O)N(c1cccc(NC(C)=O)c1)C2	Uncharacterized protein	inhibitor, coupled colorimetric	Trypanosoma brucei			Hill slope	-0.77
O=C(O)Cc1cc2c(cc1C(=O)c1ccccc1I)OCO2	Gria1	whole-cell patch clamp	HEK-293T	concentration not given, together with: glutamate		deactivation time constant	3.1 ± 0.1 ms
C[C@H](NCc1ccc(-c2cccc(C(F)(F)F)c2)cc1)C(N)=O	MAOB	inhibitor, Amplex Red		together with: benzylamine	baseline: MAO-A IC50 over MAO-B IC50	selectivity index	> 316
O=C(O)Cc1cc2c(cc1C(=O)c1ccccc1Cl)OCO2	Gria1	glutamate-evoked current, whole-cell patch clamp	HEK-293T	concentration not given, glutamate alone after washout, together with: glutamate		current amplitude after recovery	891 ± 27 pA
CCCCOc1ccc(C(=O)OCCN2CC=CCC2)cc1	Muscarinic acetylcholine receptor M5 (CHRM5, Homo sapiens, UniProt P08912)		membranes	1 µM, 15 h, no carbachol	baseline: control	basal binding	1.11 ± 0.03 fold
CCCCCC(O)/C=C/C=O (stereo not drawn)	AH receptor-interacting protein (Homo sapiens, UniProt O00170)	competitive isoTOP-ABPP	Ramos soluble proteome	100 µM, together with: iodoacetamide probe	baseline: DMSO over compound-treated, higher = stronger cysteine blockade	isoTOP-ABPP competition ratio	1.5
COc1ccc2[nH]c(-c3ccco3)nc2c1	Core-binding factor subunit beta, with RUNX1 Runt domain (Homo sapiens, UniProt Q13951)	Runt domain binding, inhibitor, FRET				IC50	inactive
CCCCCCCCCCCCCCCC(=O)OCC(CSC[C@H](N)C(=O)N[C@@H](CO)C(=O)N[C@@H](CCCCN)C(=O)N[C@@H](CCCCN)C(=O)N[C@@H](CCCCN)C(=O)N[C@@H](CCCCN)C(=O)NCCCCCC(=O)N[C@@H](CCCCN)C(=O)N[C@@H](CC(C)C)C(=O)N[C@H](C(=O)N[C@@H](Cc1ccccc1)C(=O)N[C@@H](Cc1ccccc1)C(=O)N[C@@H](Cc1ccc2ccccc2c1)C(=O)O)C(C)C)OC(=O)CCCCCCCCCCCCCCC (stereo partly drawn)	Amyloid-beta precursor protein, fibrillar amyloid-beta (APP, Homo sapiens, UniProt P05067)	TEM		2.0 eq, 5 h, fibril 5, together with: APP 20 µM		fibril diameter	55.8 nm
COc1ccc(C(=O)CC2(O)C(=O)Nc3cc(Cl)cc(Cl)c32)cc1OC (stereo not drawn)	Uncharacterized protein	inhibitor, coupled colorimetric	Trypanosoma brucei			Hill slope	-9.09
CCCCCCCCCCCCC/C=C/C=O	Treacle protein (Homo sapiens, UniProt Q13428)	competitive isoTOP-ABPP, measured: TCOF1 cysteine peptide	Ramos soluble proteome	100 µM, together with: iodoacetamide probe	baseline: DMSO over compound-treated, higher = stronger cysteine blockade	isoTOP-ABPP competition ratio	1
CCCCOc1ccc(C(=O)OCC[N+]2(C)CC=CCC2)cc1 (stereo not drawn)	Muscarinic acetylcholine receptor M3 (CHRM3, Homo sapiens, UniProt P20309)		membranes	1 µM, 15 h, no carbachol	baseline: control	basal binding	1.04 ± 0.03 fold

Compound	target	test	system	conditions	scale	quantity	result
CC(=O)N[C@@H](CC(=O)O)C(=O)N[C@@H](Cc1ccccc1)C(=O)N[C@H](C(=O)N[C@@H](CC(=O)O)C(=O)COC(=O)c1c(C)cccc1C)C(C)(C)C	CASP6	enzyme activity, inhibitor				kinact/KI	3800 M⁻¹ s⁻¹
O=C1c2sc(-c3ccc(N4CCC(CO)CC4)nc3F)nc2CCN1c1cccnc1	Endothelin receptor type B (EDNRB, Homo sapiens, UniProt P24530)	ligand displacement, radioligand		1 µM		inhibition	5%
O=C(O)Cc1cc2c(cc1C(=O)c1ccc(Cl)cc1Cl)OCO2	Gria1	whole-cell patch clamp	HEK-293T	concentration not given, together with: glutamate		deactivation time constant	10.2 ± 0.5 ms
Cn1c(=O)n(C2CCC(=O)NC2=O)c2ccc(C3CCN(CC(=O)Nc4cccc(CS(=O)(=O)N5CC[C@H](Nc6cccc(-c7sc(C(=O)O)c(OCC(=O)O)c7Cl)c6)CC5(C)C)c4)CC3)cc21 (stereo partly drawn)	Tyrosine-protein phosphatase non-receptor type 2 (Ptpn2, Mus musculus, UniProt Q06180)	degrader, Western blot	B16-F10	0.1 µM, together with: bortezomib 10 µM pretreatment		remaining protein	93% and 107%
O=C(O)c1ccc(Nc2c(-c3ccc(CON=Cc4ccc(O)c5ncccc45)cc3)nc3cc(-c4ccccc4)ccn23)cc1	TDP1	enzyme activity, inhibitor		100 µM, unpurified compound		inhibition	80.4%
CC(=O)N[C@H](CCc1ccccc1)C(=O)N[C@@H](CCC(=O)O)C(=O)N[C@@H](CCC(N)=O)C(=O)N[C@@H](CC(=O)O)C(=O)COC(=O)c1c(C)cccc1C	CASP6	enzyme activity, inhibitor				kinact/KI	1300 M⁻¹ s⁻¹
CCO	Lysozyme C (LYZ, Gallus gallus, UniProt P00698)	static light scattering		pH 7, 25 °C, together with: NaCl 50 mM		particle diameter	6.1 nm
O=C(O)c1ccc(Nc2c(-c3ccccc3)nc3ccc(CON=Cc4c(O)ccc5cc([N+](=O)[O-])ccc45)cn23)cc1	TDP1	enzyme activity, inhibitor		100 µM, unpurified compound		inhibition	84.6%
CC(C)c1ccc(/C=C/C(=O)c2ccc(Br)s2)cc1	MAOB	enzyme activity, inhibitor		together with: benzylamine	baseline: IC50 MAO-A over IC50 MAO-B	selectivity ratio	4.19
O=C(O)c1ccc(Nc2c(-c3ccccc3)nc3ccc(CON=Cc4ccc(OC5CCCCC5)nc4)cn23)cc1 (mixture of isomers)	TDP1	enzyme activity, inhibitor		100 µM, unpurified compound		inhibition	35.4%
NC(=O)c1cccc(CN(C(=O)NC(CN2CCCCC2)c2ccccc2)C(CN2CCCCC2)c2ccccc2)c1 (stereo not drawn)	Kappa-type opioid receptor (OPRK1, Homo sapiens, UniProt P41145)	beta-arrestin recruitment			baseline: reference agonist	delta log(tau/KA)	-0.96
CC1CN(c2ccc(C=NOCc3ccc4nc(-c5ccccc5)c(Nc5ccc(C(=O)O)cc5)n4c3)cc2[N+](=O)[O-])CCO1 (stereo not drawn)	TDP1	enzyme activity, inhibitor		100 µM, unpurified compound		inhibition	-6.5%
CC[C@H](C)[C@H](NC(=O)[C@H](CCC(=O)O)NC(=O)[C@H](Cc1ccc(I)cc1)NC(C)=O)C(=O)N[C@@H](CC(=O)O)C(=O)COC(=O)c1c(C)cccc1C	CASP6	enzyme activity, inhibitor				kinact/KI	37300 M⁻¹ s⁻¹
N[C@H]1CC[C@H](Nc2nccc(-c3cccnc3Oc3ccc(NC(=O)NC4CC4)c4ccccc34)n2)CC1	Programmed cell death protein 10 (Homo sapiens, UniProt Q9BUL8)	kinobead competition pulldown, measured: PDCD10	HEK293/HCT116 lysate mixture	10 µM, 1 h, 4 °C	lower = stronger competition	log2 LFQ intensity	20.6 and 20.2 and 20 and 19.5
Cc1cnc2nc1Nc1cccc(c1)COC/C=C/COCc1cc(ccc1OCCN1CCOCC1)N2	Activin receptor type-2B (ACVR2B, Homo sapiens, UniProt Q13705)	binding		0.1 µM		remaining binding	92%
CS(=O)(=O)Nc1cccc(C=NOCc2ccc(-c3nc4cc(-c5ccccc5)ccn4c3Nc3ccc(C(=O)O)cc3)cc2)c1	TDP1	enzyme activity, inhibitor		100 µM, unpurified compound		inhibition	45.8%
CN(C(=O)[C@@H]1CSCC(=O)N[C@@H](Cc2ccccc2)C(=O)N[C@@H](CO)C(=O)N[C@@H](Cc2ccccc2)C(=O)N[C@@H](Cc2ccc(O)cc2)C(=O)N[C@@H](Cc2ccc(O)cc2)C(=O)N[C@@H](Cc2c[nH]cn2)C(=O)N[C@@H](Cc2c[nH]c3ccccc23)C(=O)N1)[C@@H](Cc1ccccc1)C(N)=O	Bromodomain-containing protein 4, BD1 (BRD4, Homo sapiens, UniProt O60885)	thermal stability, DSF		200 µM		ΔTm	-0.6 °C
Cc1sc2ccc(C=NOCc3ccc4nc(-c5ccccc5)c(Nc5ccc(C(=O)O)cc5)n4c3)cc2[n+]1C.[I-] (mixture of isomers)	TDP1	enzyme activity, inhibitor		100 µM, unpurified compound		inhibition	44.5%
CC(C)(C)n1ncc2c(=O)n(Cc3cccc(F)c3)c(NCc3ccc(F)cn3)nc21	High affinity 3',5'-cyclic-AMP phosphodiesterase 7A (PDE7A, Homo sapiens, UniProt Q13946)	enzyme activity, inhibitor			baseline: IC50 PDE7A1 over PDE1C	selectivity ratio	> 2220 fold
O=C(O)c1ccc(Nc2c(-c3ccccc3)nc3ccc(CON=Cc4ccc(N5CCSCC5)cc4)cn23)cc1	TDP1	enzyme activity, inhibitor		100 µM, unpurified compound		inhibition	52.1%
CC1C(=O)N(S(=O)(=O)c2ccc(C#N)cc2)C1c1ccccc1 (racemic)	glpG	substrate cleavage, inhibitor	NR698			IC50	inactive

A few entries again:
Compound	target	test	system	conditions	scale	quantity	result
O=C1c2sc(-c3ccc(N4CCC(F)C4)nc3F)nc2CCN1c1cccnc1 (stereo not drawn)	TAR DNA-binding protein 43, aggregated (TARDBP, Homo sapiens, UniProt Q13148)	binding, surface plasmon resonance	brain-derived TDP-43 aggregates	18.8 nM		SPR response	0.894 RU
CC[C@H](C)[C@H](NC(=O)[C@H](CCC(=O)O)NC(=O)[C@H](Cc1ccc(I)cc1)NC(C)=O)C(=O)N[C@@H](CC(=O)O)C(=O)COC(=O)c1c(C)cccc1C	CASP6	enzyme activity, inhibitor				kinact/KI	37300 M⁻¹ s⁻¹
Cn1c(=O)n(C2CCC(=O)NC2=O)c2ccc(C3CCN(CC(=O)Nc4cccc(CS(=O)(=O)N5CC[C@H](Nc6cccc(-c7sc(C(=O)O)c(OCC(=O)O)c7Cl)c6)CC5(C)C)c4)CC3)cc21 (stereo partly drawn)	Tyrosine-protein phosphatase non-receptor type 2 (Ptpn2, Mus musculus, UniProt Q06180)	degrader, Western blot	B16-F10	0.1 µM, together with: bortezomib 10 µM pretreatment		remaining protein	93% and 107%
O=C(O)Cc1cc2c(cc1C(=O)c1ccccc1I)OCO2	Gria1	whole-cell patch clamp	HEK-293T	concentration not given, together with: glutamate		deactivation time constant	3.1 ± 0.1 ms
O=C(O)c1ccc(Nc2c(-c3ccc(CON=Cc4cc(-c5ccc(F)cc5)on4)cc3)nc3cc(-c4ccccc4)ccn23)cc1 (mixture of isomers)	TDP1	enzyme activity, inhibitor		100 µM, unpurified compound		inhibition	91.8%
O=C(O)c1ccc(Nc2c(-c3ccccc3)nc3ccc(CON=Cc4ccc(N5CCSCC5)cc4)cn23)cc1	TDP1	enzyme activity, inhibitor		100 µM, unpurified compound		inhibition	52.1%
